Assay results of several laboratories.
Each line is one published result; not all experiments were run side by side. ± gives the spread as reported. Converted amounts (≈) assume the structure as drawn.
Organism: Enterococcus faecium

Structure (SMILES) | assay | test system | setting | quantity | value
Cn1c(=O)ccc2ccc(F)c(CCNC[C@H]3CN(c4cnc5c(n4)NC(=O)CO5)C(=O)O3)c21 | – | – | – | MIC50 | 0.03 µg/mL (≈ 0.064 µM)
C[C@@H](NC(=O)[C@@H](C)NC(=O)[C@H](CCCCNC(=O)c1cccc(S(=O)(=O)F)c1)NC(=O)c1cccc(S(=O)(=O)F)c1)C(=O)O | cell growth | – | 24 h, together with: vancomycin 8 µg/mL | IC50 | 14 µM
CCCCCCCCCC(=O)N[C@@H](Cc1c[nH]c2ccccc12)C(=O)N[C@H](CC(N)=O)C(=O)N[C@@H](CC(=O)O)C(=O)N[C@@H]1C(=O)NCC(=O)N[C@@H](CCCN)C(=O)N[C@@H](CC(=O)O)C(=O)N[C@H](C)C(=O)N[C@@H](CC(=O)O)C(=O)NCC(=O)N[C@H](CO)C(=O)N[C@@H]([C@H](C)CC(=O)O)C(=O)N[C@@H](CC(=O)c2ccccc2N)C(=O)O[C@@H]1C | – | resistant isolate | 16 h, together with: Ca2+ 2.5 mM | MIC | 4 µg/mL (≈ 2.47 µM)
CN[C@H](CC(C)C)C(=O)N[C@H]1C(=O)N[C@@H](CC(N)=O)C(=O)N[C@H]2C(=O)NC3C(=O)N[C@H](C(=O)N[C@H](C(=O)NCCC[N+](C)(C)C)c4cc(O)cc(O)c4-c4cc3ccc4O)[C@H](O)c3ccc(c(Cl)c3)Oc3cc2cc(c3OC2OC(CO)C(O)[C@H](O)[C@@H]2O[C@H]2CC(C)(NCc3ccc(-c4ccc(Cl)cc4)cc3)[C@H](O)[C@H](C)O2)Oc2ccc(cc2Cl)[C@H]1O (some centres unmarked) | – | ATCC BAA-2317 VanA VRE | together with: POPE 100 µg/mL | MIC | 0.3 µg/mL
CC[C@H](C)[C@H](NC(=O)[C@H](C)NC(=O)[C@H](CCCCN)NC(=O)[C@H](CC(C)C)NC(=O)[C@H](C)NC(=O)[C@@H](NC(=O)[C@H](Cc1c[nH]cn1)NC(=O)[C@H](CC(C)C)NC(=O)[C@@H](NC(=O)[C@@H](NC(=O)[C@H](CCCCN)NC(=O)[C@H](C)NC(=O)[C@H](C)NC(=O)[C@H](CO)NC(=O)[C@H](CCCCN)NC(=O)[C@H](Cc1ccccc1)NC(=O)[C@@H](NC(=O)[C@H](CCCCN)NC(=O)[C@H](CC(C)C)NC(=O)[C@H](Cc1ccccc1)NC(=O)[C@H](CO)NC(=O)[C@H](CCCCN)NC(=O)[C@H](Cc1c[nH]c2ccccc12)NC(=O)[C@H](CCCCN)NC(C)=O)[C@@H](C)O)[C@@H](C)O)C(C)C)[C@@H](C)O)C(=O)N[C@@H](CO)C(=O)N[C@@H](CO)C(N)=O | – | – | 40 strains | MBC90 | > 64 µg/mL
CC(=O)NCCCC[C@H](NC(C)=O)C(=O)N[C@H](C)C(=O)N[C@H](C)C(=O)O | cell growth | – | 24 h, together with: vancomycin 8 µg/mL | IC50 | 137 µM
CN[C@H](CC(C)C)C(=O)N[C@H]1C(=O)N[C@@H](CC(N)=O)C(=O)N[C@H]2C(=O)N[C@H]3C(=O)N[C@H](C(=O)N[C@H](C(=O)O)c4cc(O)cc(O)c4-c4cc3ccc4O)[C@H](O)c3ccc(c(Cl)c3)Oc3cc2cc(c3O[C@@H]2O[C@H](CO)[C@@H](O)[C@H](O)[C@H]2O[C@H]2C[C@](C)(N)[C@H](O)[C@H](C)O2)Oc2ccc(cc2Cl)[C@H]1O | broth microdilution | VanB vancomycin-resistant clinical isolates | – | MIC range | ≥ 32 µg/mL
CC(=O)N[C@H]1[C@@H](O[C@@H]2O[C@H](C[C@@H](O)[C@H]3O[C@@H](n4ccc(=O)[nH]c4=O)[C@H](O)[C@@H]3O)[C@H](O)[C@H](O)[C@H]2NC(=O)/C=C/CCCCCCCCCC(C)C)O[C@H](CO)[C@@H](O)[C@@H]1O | resazurin microplate | NR-32065 | – | MIC90 | 10.3 ± 0.246 µg/mL (≈ 12.4 µM)

Repeated from above:
Structure (SMILES) | assay | test system | setting | quantity | value
CC(=O)NCCCC[C@H](NC(C)=O)C(=O)N[C@H](C)C(=O)N[C@H](C)C(=O)O | cell growth | – | 24 h, together with: vancomycin 8 µg/mL | IC50 | 137 µM
